Experimental data of several laboratories.
Parts stem from different laboratories: compare values within a part only. Substitutions count along the parent as printed.
UniProt Q00526, sequence (whole entry, looked up): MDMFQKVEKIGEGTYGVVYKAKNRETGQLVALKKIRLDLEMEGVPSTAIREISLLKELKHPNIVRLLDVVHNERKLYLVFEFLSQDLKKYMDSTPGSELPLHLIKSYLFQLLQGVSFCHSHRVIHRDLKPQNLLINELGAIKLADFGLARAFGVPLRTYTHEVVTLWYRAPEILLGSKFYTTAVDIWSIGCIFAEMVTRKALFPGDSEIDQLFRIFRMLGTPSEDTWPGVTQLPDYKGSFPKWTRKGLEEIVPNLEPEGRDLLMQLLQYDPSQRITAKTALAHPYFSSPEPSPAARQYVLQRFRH

Sample 1
Target: CCNE2, cyclin fold, Cln2 fusion (human)
Method: yeast growth competition, sequencing
Medium: yeast
Notes: strong parent motif
Baseline: not given
Direction: higher = stronger binding
Starting sequence: viral docking peptide; KGVKRKLFAEDSS; partner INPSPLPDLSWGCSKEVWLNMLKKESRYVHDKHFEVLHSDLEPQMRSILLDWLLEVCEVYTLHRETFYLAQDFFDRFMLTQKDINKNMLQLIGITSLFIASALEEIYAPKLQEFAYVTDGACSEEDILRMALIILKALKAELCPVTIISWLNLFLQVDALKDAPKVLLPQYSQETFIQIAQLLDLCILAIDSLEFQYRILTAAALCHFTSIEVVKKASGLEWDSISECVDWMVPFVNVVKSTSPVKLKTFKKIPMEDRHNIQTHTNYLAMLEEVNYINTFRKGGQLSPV
Substitution	normalised enrichment score
KGVKRWLFAEDSS [K6W]	2.63
KGVKRKLFAEDVS [S12V]	6.95
KGVKRKLFAHDSS [E10H]	5.18
KGVKRKLFACDSS [E10C]	5.78
KGVKRKLFAELSS [D11L]	5.3
KGVKRKLFARDSS [E10R]	3.39
KGVARKLFAEDSS [K4A]	5.3
KGVKRMLFAEDSS [K6M]	5.15

Sample 2
Target: HLA class I histocompatibility antigen, A alpha chain, allele A*26:03 (Homo sapiens, UniProt P04439)
Read-out: peptide-MHC binding
Molecule type: peptide
Concentration: concentration not given
Sequence	binding
GFPSLESSF	inactive
YYKDDISYF	inactive
ETWVETWAF	inactive
SRWAISHWL	inactive
VSIRGSHHK	inactive
EKLKSLFNTV	inactive
RRNRKALWL	inactive
REVFYFGKF	inactive

Sample 3
Target: UBE2D4 UBC core domain (UniProt Q9Y2X8)
Method: yeast two-hybrid
Medium: yeast
Notes: mostly zero background
Baseline: not given
Direction: higher = stronger interaction
B1: TRIM47 RING domain (UniProt Q96LD4); chain MDGSGPFSCPICLEPLREPVTLPCGHNFCLACLGALWPHRGASGAGGPGGAARCPLCQEPFPDGLQLR
B2: MARCHF2 RING domain (UniProt Q9P0N8); chain RLLSTVIRALDTPSDGPFCRICHEGANGECLLSPCGCTGTLGAVHKSCLEKWLSSSNTSYCELCHTEFAVEKRPRPLTEWL
B3: RNF115 RING domain (UniProt Q9Y4L5); chain TQEQVDMGLECPVCKEDYTVEEEVRQLPCNHFFHSSCIVPWLELHDTCPVCRKSLNGEDSTR
B4: RNF32 RING domain (UniProt Q9H0A6); chain VQALRRETHECSICLAPLSAAGGQRVGAGRRSREMALLSCSHVFHHACLLALEEFSVGDRPPFHACPLCRSCYQKKILEC
B5: MDM2 RING domain (UniProt Q00987); chain TQDKEESVESSLPLNAIEPCVICQGRPKNGCIVHGKTGHLMACFTCAKKLKKRNKPCPVCRQPIQMIVLTYFP
B6: RNF17 RING domain (UniProt Q9BXT8); chain SQPWGAAEIQCTRCGRRVSRSSGHHCELQCGHAFCELCLLMTEECTTIICPDCEVATAVNTRQR
Construct (chain): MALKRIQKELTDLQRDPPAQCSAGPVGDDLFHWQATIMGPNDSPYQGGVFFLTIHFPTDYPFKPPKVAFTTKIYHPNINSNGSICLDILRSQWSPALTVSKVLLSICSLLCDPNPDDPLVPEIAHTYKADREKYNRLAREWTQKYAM
Sequence	lacZ reporter activity
B1 (TRIM47 RING domain)	0
B2 (MARCHF2 RING domain)	0
B3 (RNF115 RING domain)	4570
B4 (RNF32 RING domain)	0
B5 (MDM2 RING domain)	0
PLRRLQEEKLCKICMDRHIAVVFIPCGHLVTCKQCAEAVDRCPMCSAVIDFKQRVF (BIRC8 RING domain (UniProt Q96P09))	0
EDVLSKDAGECAICLEELQQGDTIARLPCLCIYHKGCIDEWFEVNRSCPEHPSD (ZNRF2 RING domain (UniProt Q8NHG8))	14800
B6 (RNF17 RING domain)	0

Single results of other studies
Compound	target	test	conditions	measurement	result
CC(C)(C)c1cc(C=C(C#N)C#N)cc(Br)c1O	Cyclin-dependent kinase 3, with cyclin E (CDK3, Homo sapiens, UniProt Q00526)	enzyme activity, inhibitor	0.5 µM	remaining activity	98.9%

For quick reference, copied from above (sample 3):
Sequence	lacZ reporter activity
B1 (TRIM47 RING domain)	0
B2 (MARCHF2 RING domain)	0
B3 (RNF115 RING domain)	4570
B4 (RNF32 RING domain)	0
